Results pooled from the literature.
Parts stem from different laboratories: compare values within a part only.

Sample 1
Target: Histone acetyltransferase KAT6A, winged helix 1, GST fusion (KAT6A, Homo sapiens, UniProt Q92794, residues 1-85)
Method: protein binding microarray
Molecule type: double-stranded DNA, one strand shown
Sample: in vitro
Tested at: not given
Notes: 8-mer, flanks averaged, mean of 2 arrays, mostly near background
Reference: not given
Direction: higher = stronger binding
Construct (chain): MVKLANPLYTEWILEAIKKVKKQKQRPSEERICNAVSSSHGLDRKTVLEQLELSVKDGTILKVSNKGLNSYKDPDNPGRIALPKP
| Strand | E-score |
| --- | --- |
| CAGGGGTA | -0.187 |
| CGGGCACA | 0.0118 |
| CCCCAGAA | -0.217 |
| CTTATCAA | -0.192 |
| GGTTGAAA | -0.0935 |
| AACAGTCA | -0.1 |
| CCGCGCAA | 0.393 |
| ACGAGTCC | 0.0138 |
| ATTCTTCA | -0.271 |
| AACGGGCT | 0.211 |
| AGAACCCT | -0.0551 |
| AAGCAATG | -0.216 |
| ACAGCAGC | -0.134 |
| ACTGAGAC | -0.156 |
| GCGAATAA | 0.158 |
| TAAATTGA | -0.2 |
| AAAACCAG | -0.0348 |
| GTGCAGAA | -0.118 |
| AAAGGGAA | -0.108 |
| ACGCTCGC | 0.141 |
| AATTAACT | -0.152 |
| CGTGCTAC | 0.0479 |
| CGCGGAGA | 0.295 |
| ACCCATAG | -0.165 |
| GGGCCACA | -0.0752 |

Sample 2
Target: RNA binding protein fox-1 homolog 2, RRM domain, GST-SBP tag (RBFOX2, Homo sapiens, UniProt O43251-10, residues 100-194)
Method: RNA Bind-n-Seq
Molecule type: RNA
Sample: in vitro
Tested at: 365 nM
Notes: natural RNA segment, single round, ends assumed
Reference: no-protein control
Direction: higher = stronger binding
All sequences stand within: GGGAGUUCUACAGUCCGACGAUC … UGGAAUUCUCGGGUGCCAA
| Strand | RBNS enrichment (R) |
| --- | --- |
| ACUUUGAAAGAUAACAUUUUAUUAUGAUGGUGCUAGGUAAAAAAUUGUAAAGACUGGGAUGGUUGUGUGGAAAACUUUUCUUGAGAGAACCUAUUGAAAGGAAUUUGUUG | 0.939 |
| UUUGGCUGCAGUAUUGGUGGUAGAAUAUACUUUGAUGGAUCAUCUCUACUUCUGUAUUUAUUUAUUUAUUACUAGACCUCAACCACAGCCUUCUCCCCCUCCACUCUCUG | 0.381 |
| CCUUUAUUGCAGUUCAAAUCCUCACCAUCCACAGCAAGAUGAAUUUUAUCAGCCAUGUUUGGUUGUAAAUGCUCGUGUGAUUUCCUACAGAAAUACUGCUCUGAAUAUUU | 0.49 |
| GGGGAUAUGGUGGCUCUGUGAUCUGUUUGUCCAUUUGUGUCCAGUGUUGACCUGCGUUACUGGAACUUGGAGCUACCCUGUUUGGUUACCAGUGGACUGUUAGAAAGUAU | 2.67 |
| GCAAACCCAAAAUAUUUUAUUAAGAAACUGUUUCAAAGAUAAAUUUGCACUGCUCCUUUUUCUUGCCCCACCCCUCCUGAUGGGACAAAAGGGUGAAGAGCUCAAAGAAC | 0.525 |
| ACCUGCACUUAGAGGAAAUUUGAACAAGUUGGAAAAAAACAAUUUUUGUUUCAAUUCUAAGAAACACUUGCAGCUCUAGUAUUCACUUGAGUCUUCCUGUUUUUCCUGUA | 0.375 |
| UUCCUGUUUGCCGUGUAAAUGUUAGAAAGGAAUUAAAGUUAUUACUCGGAAUAAAGGAUGACUUUGGCGGAUGUCGCCCCUGCAAGGAGGUGGCUGAAAGUGGUGUCCAG | 0.434 |
| CCAUGGUAAGUUGAGGCAUAUCUGUAUAUAUUUAAACCUAAUUAAUUCUUGAGCUGAAAAUAAAUAAACCAGGAUGGCAGGGACCAACCCCUAAUCCCUCCCCAGCGGCA | 0.419 |

Sample 3
Target: Sal-like protein 4, full length isoform B (SALL4, Homo sapiens, UniProt Q9UJQ4-2, residues 1-616)
Method: universal PBM
Molecule type: double-stranded DNA, one strand shown
Sample: in vitro
Tested at: not given
Notes: 8-mer, flanks averaged, mean of replicates
Direction: higher = stronger binding
Construct (chain): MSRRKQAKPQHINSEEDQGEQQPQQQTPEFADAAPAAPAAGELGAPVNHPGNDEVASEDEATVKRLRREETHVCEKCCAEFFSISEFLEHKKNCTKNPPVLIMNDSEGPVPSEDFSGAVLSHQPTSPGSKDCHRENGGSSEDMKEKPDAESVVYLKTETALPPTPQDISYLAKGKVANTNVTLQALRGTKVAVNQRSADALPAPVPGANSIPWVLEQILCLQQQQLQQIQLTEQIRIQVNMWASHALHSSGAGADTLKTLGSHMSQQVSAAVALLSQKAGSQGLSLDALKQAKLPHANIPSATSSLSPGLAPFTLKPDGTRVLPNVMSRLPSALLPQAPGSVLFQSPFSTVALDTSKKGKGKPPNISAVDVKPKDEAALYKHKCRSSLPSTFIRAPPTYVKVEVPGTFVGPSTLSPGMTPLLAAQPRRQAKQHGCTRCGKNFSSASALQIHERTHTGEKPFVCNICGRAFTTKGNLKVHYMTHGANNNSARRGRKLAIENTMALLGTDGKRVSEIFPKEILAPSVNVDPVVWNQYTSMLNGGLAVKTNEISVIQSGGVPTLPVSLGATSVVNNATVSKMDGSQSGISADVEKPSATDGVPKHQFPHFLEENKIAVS
| Strand | E-score |
| --- | --- |
| CATCCCCC | -0.313 |
| ACATCGTG | -0.00353 |
| AGTAGGTG | 0.0888 |
| TAAACAAA | 0.225 |
| GAAACTAA | 0.0739 |
| AGGGCCTG | -0.317 |
| ATCCTAGG | -0.13 |
| CCACTGTA | 0.1 |
| ACTGCACT | -0.021 |
| CAGCTAAG | -0.187 |
| GCCATCGC | -0.192 |
| ACATCTGG | 0.0729 |
| CTAGCCTC | -0.172 |
| CAACGATG | -0.029 |
| AACGCACT | 0.0351 |
| AAGGAAAC | -0.0789 |
| TCGAGTCA | -0.137 |
| AGCAGGGG | -0.0867 |
| AGGTGGCG | -0.121 |
| ACCAAGGC | -0.17 |
| AGAATACG | 0.184 |
| ATTCTACA | 0.0981 |
| CGTCGCTC | -0.306 |
| CAATCTGA | 0.032 |
| CGACCAGA | -0.145 |

Sample 4
Target: Ras GTPase-activating protein-binding protein 1, C-terminal RGG region (G3BP1, Homo sapiens, UniProt Q13283)
UniProt Q13283, sequence (whole entry, looked up): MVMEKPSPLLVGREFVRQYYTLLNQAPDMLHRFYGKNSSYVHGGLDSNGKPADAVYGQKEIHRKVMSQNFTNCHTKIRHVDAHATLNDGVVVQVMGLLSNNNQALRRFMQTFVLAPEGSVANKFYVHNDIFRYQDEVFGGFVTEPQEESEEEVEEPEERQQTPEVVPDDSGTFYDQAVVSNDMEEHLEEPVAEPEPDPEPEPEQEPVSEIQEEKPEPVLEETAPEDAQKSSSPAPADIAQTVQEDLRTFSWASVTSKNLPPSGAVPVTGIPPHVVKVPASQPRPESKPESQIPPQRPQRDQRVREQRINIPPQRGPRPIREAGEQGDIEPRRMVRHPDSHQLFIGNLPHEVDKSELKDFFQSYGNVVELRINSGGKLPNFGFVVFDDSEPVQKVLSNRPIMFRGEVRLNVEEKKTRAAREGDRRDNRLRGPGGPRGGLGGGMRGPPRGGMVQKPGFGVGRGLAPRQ
Method: RNA Bind-n-Seq
Molecule type: RNA
Sample: in vitro
Tested at: 1 µM
Notes: whole 134-nt RNA, ends assumed
Together with: 150 mM KCl
Reference: input library
Direction: higher = stronger binding
All sequences stand within: GGGAGUUCUACAGUCCGACGAUC … UGGAAUUCUCGGGUGUCAAGG
| Strand | log2 enrichment |
| --- | --- |
| UCCUGUGCUACACAUCGUAUGUACCGAAUCGGGAAAAAAGGGAAAAAAGGGAAAAAAGGGAAAGUAUUAUGUUACGCCGUUCGGAUCUGC | -0.775 |
| UAUUAAUUUGAUAUAUUUAUUAUGAUUUGUAGAGGACGUCGGUGAUGAAGGAGAAGAAGAAAAAGAAUUCAUUUCCUAUAACAUCAACAU | -2.82 |
| UAACUUUAGAGGAGGAUCUGAUGGAUAUGGCAGUCGACGUGGAUUUGGGGAUGGCUAUAAUGGGUAUGGAGGAGGACCUGGAGGUGGCAA | -0.527 |
| UCCUGUGCUACACAUCGUAUGUACCGAAUCGGGUUUUUUGGUUUUUUGGGUUUUUUGGGAAAGUAUUAUGUUACGCCGUUCGGAUCUGCA | -0.812 |
| CACAGACACCACGCACCCACACAGACACAGAGGGAAGGGGUUGGGAUGGGGACAGGGUGCACAGCAGGGCGGGGUAGGACCCCAGCCCCU | -0.384 |
| UUAGGGAUGUGGCCAUAGAAUUCUCUCAGGAGGAGUGGAAAUGCCUGGACCCUGCUCAGAGGAUCUUAUACAGGGACGUGAUGUUGGAGA | 0.318 |
| AGUCCUGUGCUACACAUCGUAUGUACCGAAUCGGGUUUUUUUGGGUUUUUGGGUGGGAAAGUAUUAUGUUACGCCGUUCGGAUCUGCACU | 0.568 |
| UCCUGUGCUACACAUCGUAUGUACCGAAUCGGGAAAAAAAGGGAAAAAGGGUUUUUGGGAAAGUAUUAUGUUACGCCGUUCGGAUCUGCA | -0.348 |
| UUCCUCAAGUCCUGUGCUACACAUCGUAUGUACCGAAUCGGUGGUGGGUGGAAAGUAUUAUGUUACGCCGUUCGGAUCUGCACUUCCAGC | -0.362 |

Excerpt of the above (sample 1):
| Strand | E-score |
| --- | --- |
| CTTATCAA | -0.192 |
| CCGCGCAA | 0.393 |
| ACGAGTCC | 0.0138 |
| AAGCAATG | -0.216 |
